Assay results of several laboratories.
± gives the spread as reported.
uidA: Beta-glucuronidase (uidA, Escherichia coli, UniProt P05804)
Sequence of UniProt P05804 (whole entry, looked up): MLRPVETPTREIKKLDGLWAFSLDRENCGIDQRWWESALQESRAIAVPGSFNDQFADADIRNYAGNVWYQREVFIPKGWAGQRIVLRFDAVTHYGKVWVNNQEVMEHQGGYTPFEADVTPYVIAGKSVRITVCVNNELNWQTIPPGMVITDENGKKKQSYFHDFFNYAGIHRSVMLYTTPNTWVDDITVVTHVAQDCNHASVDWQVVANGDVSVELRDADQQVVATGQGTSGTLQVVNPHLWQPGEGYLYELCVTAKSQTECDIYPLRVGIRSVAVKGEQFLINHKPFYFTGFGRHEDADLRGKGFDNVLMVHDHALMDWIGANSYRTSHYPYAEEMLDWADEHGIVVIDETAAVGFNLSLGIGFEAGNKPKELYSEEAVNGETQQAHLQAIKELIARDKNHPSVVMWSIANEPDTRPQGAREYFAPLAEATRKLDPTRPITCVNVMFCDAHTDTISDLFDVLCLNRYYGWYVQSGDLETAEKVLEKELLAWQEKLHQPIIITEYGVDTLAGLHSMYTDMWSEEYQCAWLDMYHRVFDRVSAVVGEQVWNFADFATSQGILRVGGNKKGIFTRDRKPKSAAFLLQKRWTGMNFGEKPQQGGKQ
Sequence of UniProt P26918 (whole entry, looked up): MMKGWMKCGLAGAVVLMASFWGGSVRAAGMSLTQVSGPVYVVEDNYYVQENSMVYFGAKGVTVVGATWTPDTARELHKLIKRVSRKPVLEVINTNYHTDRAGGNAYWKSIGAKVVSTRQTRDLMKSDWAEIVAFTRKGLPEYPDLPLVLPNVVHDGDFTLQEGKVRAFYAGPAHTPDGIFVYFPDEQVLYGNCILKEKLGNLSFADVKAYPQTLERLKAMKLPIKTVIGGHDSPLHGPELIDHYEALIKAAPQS
Sequence of UniProt P30550 (whole entry, looked up): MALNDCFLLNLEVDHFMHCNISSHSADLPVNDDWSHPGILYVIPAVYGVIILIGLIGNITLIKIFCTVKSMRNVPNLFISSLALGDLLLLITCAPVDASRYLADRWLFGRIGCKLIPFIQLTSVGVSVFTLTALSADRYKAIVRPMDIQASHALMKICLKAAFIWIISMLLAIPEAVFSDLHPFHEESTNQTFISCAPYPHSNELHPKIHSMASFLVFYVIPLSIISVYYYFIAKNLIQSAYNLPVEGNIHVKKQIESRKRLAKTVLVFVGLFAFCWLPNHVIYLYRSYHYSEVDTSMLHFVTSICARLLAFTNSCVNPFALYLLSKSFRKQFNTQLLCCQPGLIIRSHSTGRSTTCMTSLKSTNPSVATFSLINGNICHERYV
Sequence of UniProt Q99808 (whole entry, looked up): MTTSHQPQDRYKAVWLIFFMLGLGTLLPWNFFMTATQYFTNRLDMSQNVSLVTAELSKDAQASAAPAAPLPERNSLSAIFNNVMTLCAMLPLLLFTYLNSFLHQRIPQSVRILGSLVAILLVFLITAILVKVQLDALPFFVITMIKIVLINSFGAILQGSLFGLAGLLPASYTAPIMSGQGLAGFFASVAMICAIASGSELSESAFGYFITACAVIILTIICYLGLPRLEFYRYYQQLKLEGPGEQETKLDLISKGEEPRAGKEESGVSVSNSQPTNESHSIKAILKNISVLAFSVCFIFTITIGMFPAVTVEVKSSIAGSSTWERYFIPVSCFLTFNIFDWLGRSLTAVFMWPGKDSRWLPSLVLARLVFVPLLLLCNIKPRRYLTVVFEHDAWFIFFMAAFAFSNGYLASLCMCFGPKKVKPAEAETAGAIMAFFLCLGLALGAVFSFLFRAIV
Sequence of UniProt Q92769 (whole entry, looked up): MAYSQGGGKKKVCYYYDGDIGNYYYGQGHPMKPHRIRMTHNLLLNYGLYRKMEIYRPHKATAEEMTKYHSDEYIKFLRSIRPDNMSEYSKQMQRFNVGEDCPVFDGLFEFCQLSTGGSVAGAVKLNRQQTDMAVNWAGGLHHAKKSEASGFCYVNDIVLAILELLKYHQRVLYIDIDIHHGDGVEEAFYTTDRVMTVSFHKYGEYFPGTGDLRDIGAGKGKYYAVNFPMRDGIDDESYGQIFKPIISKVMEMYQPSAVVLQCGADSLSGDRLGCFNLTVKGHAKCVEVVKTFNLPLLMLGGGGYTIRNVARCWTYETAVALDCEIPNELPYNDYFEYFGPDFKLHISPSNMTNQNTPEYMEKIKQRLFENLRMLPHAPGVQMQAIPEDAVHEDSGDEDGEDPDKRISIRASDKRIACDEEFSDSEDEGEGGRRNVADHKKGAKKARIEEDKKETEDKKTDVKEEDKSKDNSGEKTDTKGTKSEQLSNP
Sequence of UniProt Q9NR22 (whole entry, looked up): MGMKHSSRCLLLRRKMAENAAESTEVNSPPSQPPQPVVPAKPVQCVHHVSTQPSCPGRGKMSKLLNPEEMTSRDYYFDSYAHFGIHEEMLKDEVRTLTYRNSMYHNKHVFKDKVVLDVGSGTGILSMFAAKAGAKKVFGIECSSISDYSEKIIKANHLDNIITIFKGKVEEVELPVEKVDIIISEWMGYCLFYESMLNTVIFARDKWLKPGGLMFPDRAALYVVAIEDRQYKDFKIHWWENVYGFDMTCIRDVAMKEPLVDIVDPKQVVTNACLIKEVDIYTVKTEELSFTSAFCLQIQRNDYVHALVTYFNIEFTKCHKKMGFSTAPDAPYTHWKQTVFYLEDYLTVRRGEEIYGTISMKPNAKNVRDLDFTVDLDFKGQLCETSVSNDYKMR
Sequence of UniProt O43148 (whole entry, looked up): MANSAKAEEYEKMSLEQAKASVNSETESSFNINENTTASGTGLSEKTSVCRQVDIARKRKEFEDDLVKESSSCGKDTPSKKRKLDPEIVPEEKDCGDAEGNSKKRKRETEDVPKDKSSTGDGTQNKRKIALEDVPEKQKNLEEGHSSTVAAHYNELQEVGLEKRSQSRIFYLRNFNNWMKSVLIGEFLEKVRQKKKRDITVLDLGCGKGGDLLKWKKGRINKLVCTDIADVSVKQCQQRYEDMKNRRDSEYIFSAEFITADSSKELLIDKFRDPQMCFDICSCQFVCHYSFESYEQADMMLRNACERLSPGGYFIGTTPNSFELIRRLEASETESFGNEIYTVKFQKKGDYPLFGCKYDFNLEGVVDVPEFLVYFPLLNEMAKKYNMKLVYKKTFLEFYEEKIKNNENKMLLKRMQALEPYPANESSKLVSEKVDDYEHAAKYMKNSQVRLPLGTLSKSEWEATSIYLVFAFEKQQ
Sequence of UniProt Q8WUI4 (whole entry, looked up): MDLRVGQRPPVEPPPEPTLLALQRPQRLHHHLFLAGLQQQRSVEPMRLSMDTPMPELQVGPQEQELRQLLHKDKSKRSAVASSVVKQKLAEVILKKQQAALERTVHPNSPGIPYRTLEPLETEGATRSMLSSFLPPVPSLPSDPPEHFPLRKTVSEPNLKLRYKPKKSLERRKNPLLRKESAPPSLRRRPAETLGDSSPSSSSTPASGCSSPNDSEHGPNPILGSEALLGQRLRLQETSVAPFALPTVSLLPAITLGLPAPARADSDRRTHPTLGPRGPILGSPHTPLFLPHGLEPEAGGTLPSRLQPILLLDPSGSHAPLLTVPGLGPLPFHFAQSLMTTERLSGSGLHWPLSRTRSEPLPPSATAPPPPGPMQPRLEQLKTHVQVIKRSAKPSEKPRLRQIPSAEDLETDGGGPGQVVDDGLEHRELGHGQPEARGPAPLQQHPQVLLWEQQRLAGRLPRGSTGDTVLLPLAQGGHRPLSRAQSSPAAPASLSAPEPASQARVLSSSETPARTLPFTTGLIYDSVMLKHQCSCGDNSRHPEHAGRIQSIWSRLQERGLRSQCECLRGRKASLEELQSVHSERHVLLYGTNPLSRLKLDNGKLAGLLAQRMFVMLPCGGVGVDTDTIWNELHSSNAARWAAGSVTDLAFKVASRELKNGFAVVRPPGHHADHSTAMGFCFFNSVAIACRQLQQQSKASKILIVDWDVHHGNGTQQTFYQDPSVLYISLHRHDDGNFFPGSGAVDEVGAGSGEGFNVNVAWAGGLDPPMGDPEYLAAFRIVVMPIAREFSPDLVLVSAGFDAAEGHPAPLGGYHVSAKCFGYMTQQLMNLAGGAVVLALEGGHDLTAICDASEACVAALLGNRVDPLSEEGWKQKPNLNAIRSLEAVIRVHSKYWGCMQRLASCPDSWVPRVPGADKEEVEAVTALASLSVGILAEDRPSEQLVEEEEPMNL
Sequence of UniProt C7FF04 (whole entry, looked up): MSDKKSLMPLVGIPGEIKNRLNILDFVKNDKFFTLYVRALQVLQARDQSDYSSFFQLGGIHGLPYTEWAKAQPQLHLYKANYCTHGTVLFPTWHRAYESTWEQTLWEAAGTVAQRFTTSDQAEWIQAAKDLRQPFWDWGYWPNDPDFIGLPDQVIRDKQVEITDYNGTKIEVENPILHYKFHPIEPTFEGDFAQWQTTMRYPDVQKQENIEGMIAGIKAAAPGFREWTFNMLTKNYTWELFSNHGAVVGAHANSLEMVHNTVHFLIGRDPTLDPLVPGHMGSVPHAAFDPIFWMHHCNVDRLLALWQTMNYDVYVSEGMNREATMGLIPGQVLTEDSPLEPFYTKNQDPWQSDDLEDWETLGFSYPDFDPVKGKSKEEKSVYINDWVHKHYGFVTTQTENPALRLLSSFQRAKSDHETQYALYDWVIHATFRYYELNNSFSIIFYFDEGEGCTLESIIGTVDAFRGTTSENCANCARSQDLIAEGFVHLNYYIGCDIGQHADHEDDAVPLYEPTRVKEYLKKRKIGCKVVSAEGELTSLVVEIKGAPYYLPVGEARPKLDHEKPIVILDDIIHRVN
Sequence of UniProt P20231 (whole entry, looked up): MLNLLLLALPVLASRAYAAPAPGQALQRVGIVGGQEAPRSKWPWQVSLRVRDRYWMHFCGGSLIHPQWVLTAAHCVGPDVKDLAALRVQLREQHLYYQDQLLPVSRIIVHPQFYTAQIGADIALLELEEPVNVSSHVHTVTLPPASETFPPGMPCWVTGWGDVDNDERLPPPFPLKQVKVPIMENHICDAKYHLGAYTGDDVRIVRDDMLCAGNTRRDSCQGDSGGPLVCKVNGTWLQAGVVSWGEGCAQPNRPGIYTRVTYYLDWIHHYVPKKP
Sequence of UniProt P62942 (whole entry, looked up): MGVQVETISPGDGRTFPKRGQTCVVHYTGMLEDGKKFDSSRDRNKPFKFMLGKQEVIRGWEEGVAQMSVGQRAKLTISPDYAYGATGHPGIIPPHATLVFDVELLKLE

Structure (SMILES) | target | test | test system | setting | IC50 [µM]
CCC[C@@H]1NC(=O)[C@H]([C@@H](C)O)NC(=O)[C@H](CCCNC(=N)N)NC(=O)CNC(=O)CC[C@@H](C(=O)N[C@@H](C)C(=O)N[C@@H](CCCNC(=N)N)C(=O)N[C@@H](CCCCN)C(=O)N[C@@H](CO)C(=O)N[C@H](C(=O)NCC(=O)NCC(N)=O)[C@@H](C)O)NC(=O)[C@H](CCC(N)=O)NC1=O | Histone-lysine N-methyltransferase SETD7 (SETD7, Homo sapiens, UniProt Q8WTS6) | H3K4 peptide methylation, inhibitor, MALDI-TIMS-TOF MS | – | 30 min, 37 °C, together with: H3K4 peptide 10 µM, SAM 30 µM | 83.1
CC(N)CCc1ccccc1Cl (racemic) | Beta-2 adrenergic receptor (ADRB2, Homo sapiens, UniProt P07550) | β-arrestin recruitment, antagonist | – | – | > 10
O=C(Cc1ccc(F)cc1)Nc1nc(-c2ccccn2)cs1 | CTP synthase 2 (CTPS2, Homo sapiens, UniProt Q9NRF8) | – | – | – | > 100
CC(C)C[C@H](NC(=O)[C@H](CO)NC(=O)[C@H](Cc1ccc(O)cc1)NC(=O)CNC(=O)[C@H](CCCNC(=N)N)NC(=O)[C@H](Cc1ccc(O)cc1)NC(=O)[C@H](CC(N)=O)NC(=O)[C@@H](N)CC(=O)O)C(=O)NCC(=O)N[C@@H](CC(N)=O)C(N)=O | MHC class II I-A g7 (Mus musculus, UniProt P04228+Q31135) | peptide binding, competitor, competition ELISA | – | at least 24 h, pH 7.0, room temperature, together with: biotinylated HEL 10-23 200 nM | > 50
Cn1c(=O)c2cc(C(=O)NCCCN3CCCCCC3)sc2c2ccccc21 | Bifunctional FPP/GGPP synthase (Plasmodium falciparum, UniProt Q8II79) | FPP production, inhibitor | – | non-saturating substrate | 0.33
CCCC[C@H](NC(=O)[C@H](CC(C)C)NC(=O)[C@H](Cc1c[nH]cn1)NC(=O)CNC(=O)[C@@H](NC(=O)[C@H](C)NC(=O)[C@H](Cc1c[nH]c2ccccc12)NC(=O)[C@H](CCC(N)=O)NC(=O)[C@H](CC(N)=O)NC(=O)CNC(=O)[C@H](Cc1ccc(O)cc1)NC(=O)[C@H](CCCNC(=N)N)NC(=O)[C@H](CCC(N)=O)NC(=O)[C@@H]1CCC(=O)N1)C(C)C)C(N)=O | Gastrin-releasing peptide receptor (GRPR, Homo sapiens, UniProt P30550) | ligand displacement in cells, radioligand | – | – | 0.0004
C1CCc2c(c(N3CCOCC3)nc3sc4c(N5CCNCC5)nnnc4c23)C1 | uidA | enzyme activity, inhibitor, absorbance | – | pH 7.5 | 0.117
CC(C)[C@H](NC(=O)c1ccc(CCc2nc3c(c(=O)[nH]2)CCC3)cc1)C(=O)NC1COC1 | Matrix metalloproteinase-9 (MMP9, Homo sapiens, UniProt P14780) | enzyme activity, inhibitor | – | – | > 5
N=C(N)NCCC[C@H](NC(=O)[C@H](Cc1c[nH]c2ccccc12)NC(=O)[C@H](CCCCN)NC(=O)CNC(=O)CCC(=O)NN)C(N)=O | Tryptase beta-2 (TPSB2, Homo sapiens, UniProt P20231) | – | – | pH 7.4 | 12.7 ± 0.61
CC[C@H](C)[C@H](N)C(=O)N[C@@H](CO)C(=O)N[C@@H](CCC(N)=O)C(=O)N[C@H](C(=O)N[C@@H](CC(N)=O)C(=O)N[C@@H](CCC(=O)O)C(=O)N[C@@H](CCCCN)C(=O)N[C@H](C(=O)N[C@@H](CC(N)=O)C(=O)N[C@@H](CCC(N)=O)C(=O)N[C@@H](CO)C(=O)N[C@@H](CC(C)C)C(=O)N[C@@H](C)C(=O)N[C@@H](Cc1ccccc1)C(=O)N[C@H](C(=O)N[C@@H](CCCNC(=N)N)C(=O)N[C@@H](CCCCN)C(=O)N[C@@H](CO)C(=O)N[C@@H](CC(=O)O)C(=O)N[C@@H](CCC(=O)O)C(=O)N(CCOC)CC(N)=O)[C@@H](C)CC)[C@@H](C)CC)C(C)C | hRSV fusion protein 5-helix bundle | binding, fluorescence polarization | – | together with: Fl-C35 tracer 5 nM | > 200
CN(C)CP(C)(=O)O | Urease subunit alpha (Sporosarcina pasteurii, UniProt P41020) | enzyme activity, inhibitor, indophenol colorimetric | – | 20 min, pH 7.0, 37 °C, together with: 50 mM urea | 3.8 ± 0.4
N#Cc1cn([C@@H]2O[C@H](CSCC[C@H](N)C(=O)O)[C@@H](O)[C@H]2O)c2ncnc(N)c12 | Protein arginine N-methyltransferase 8 (PRMT8, Homo sapiens, UniProt Q9NR22) | enzyme activity, inhibitor, radiometric | – | – | 2
O=C(NCCN1CCC2(CC1)C(=O)NCN2Cc1cccnc1)c1cc2cc(F)ccc2[nH]1 | Phospholipase D2 (Homo sapiens, UniProt O14939) | enzyme activity, inhibitor | – | – | 0.12
CCC(C)SSc1ncc[nH]1 (stereo not shown) | Genome polyprotein, 2A protease (Human enterovirus 71, UniProt B9VUU3) | protease activity, inhibitor, FRET | Enterovirus A71 | no DTT | 16.9 ± 9.2
Cc1cc(/C=C/c2ccc3cc(N(C)C)ccc3[n+]2C)c(C)n1-c1ccccc1 | mRNA cap guanine-N(7) methyltransferase (RNMT, Homo sapiens, UniProt O43148) | enzyme activity, inhibitor | – | – | 5.1 ± 2.28
CC(C)C[C@H](NC(=O)[C@H](CC(C)C)NC(=O)[C@H](CCC(=O)O)NC(=O)[C@@H](N)CS)C(=O)O | PPO3 (Agaricus bisporus, UniProt C7FF04) | enzyme activity, inhibitor | – | – | 149

Structure (SMILES) | target | test | test system | setting | IC50 [µM]
CC(C)C[C@H]1CNC(=O)N2C[C@H](C[C@H]2C(N)=O)SCC(=O)NCCNC(=O)CSC[C@H](NC(=O)[C@H](Cc2ccccc2)NC(=O)[C@H](CO)NC(=O)[C@@H](N)[C@@H](C)O)C(=O)N[C@@H](CCC(=O)O)C(=O)N[C@@H](Cc2ccc(O)cc2)C(=O)N[C@@H](Cc2c[nH]c3ccccc23)C(=O)N[C@@H](C)C(=O)N[C@@H](CC(C)C)CNC(=O)N1 | Protein Mdm4, with p53 (MDM4, Homo sapiens, UniProt O15151) | inhibitor, HTRF | – | – | 0.119 ± 0.031
COc1ccc(CC[C@H]2OC(=O)[C@@H]3CCCCN3C(=O)C(=O)C(C)(C)COC(=O)/C=C\CCN(C)C(=O)[C@H](CC(C)C)N(C)C(=O)[C@H]3CCCN3C(=O)[C@H](Cc3ccccc3)N(C)C(=O)[C@H](c3ccccc3)NC(=O)CCC(=O)Nc3cccc2c3)cc1OC | FKBP1A/SLC29A1 (Homo sapiens, UniProt P62942+Q99808) | thymidine uptake, inhibitor | PK-15 expressing hENT1 | 30 min, together with: [3H]-thymidine | 0.0145
Cc1cccc(-c2nc(Nc3ccncn3)c3sccc3n2)n1 | Cytochrome P450 3A4 (CYP3A4, Homo sapiens, UniProt P08684) | enzyme activity, inhibitor | – | together with: VG substrate | 17
CSCC[C@H](NC(=O)[C@H](C)NC(=O)[C@H](CCCNC(=N)N)NC(=O)[C@H](Cc1ccc(O)cc1)NC(=O)[C@H](Cc1c[nH]c2ccccc12)NC(=O)[C@H](Cc1ccccc1)NC(=O)[C@H](CO)NC(=O)CNC(=O)CNC(=O)[C@H](CC(=O)O)NC(=O)[C@@H](N)CCC(=O)O)C(=O)N[C@@H](CCCCN)C(=O)N[C@@H](C)C(=O)N[C@@H](CC(C)C)C(=O)N[C@@H](Cc1ccc(O)cc1)C(=O)NCC(N)=O | Calcium and integrin-binding protein 1 (CIB1, Homo sapiens, UniProt Q99828) | peptide binding, inhibitor, TR-FRET competition | – | – | 0.016
CNc1nc2sc3c(N4CCNCC4)nnnc3c2c2c1CCCC2 | uidA | enzyme activity, inhibitor | – | – | 0.029
CC[C@H](C)[C@H](NC(=O)[C@@H]1CSSC[C@H](NC(=O)[C@H](Cc2ccc(O)cc2)NC(=O)CN)C(=O)N[C@@H](CO)C(=O)N[C@@H](CCCNC(=N)N)C(=O)N[C@@H](CO)C(=O)N[C@@H](Cc2ccc(O)cc2)C(=O)N2CCC[C@H]2C(=O)N2CCC[C@H]2C(=O)N[C@@H](C(C)C)C(=O)N1)C(=O)N1CCC[C@H]1C(=O)N[C@@H](CC(=O)O)C(N)=O | Mannan-binding lectin serine protease 2 (Homo sapiens, UniProt O00187) | C3 deposition, inhibitor, ELISA | 100-fold diluted human serum | 30 min preincubation | 0.473
CN[C@H](CC(C)C)C(=O)N[C@H]1C(=O)N[C@@H](CC(N)=O)C(=O)N[C@H]2C(=O)N[C@H]3C(=O)N[C@H](C(=O)N[C@H](C(=O)O)c4cc(O)cc(O)c4-c4cc3ccc4O)[C@H](O)c3ccc(c(Cl)c3)Oc3cc2cc(c3O[C@@H]2O[C@H](CO)[C@@H](O)[C@H](O)[C@H]2O[C@H]2C[C@](C)(NCc3ccc(C(=O)OCCCCCCN(Cc4ccccn4)Cc4ccccn4)cc3)[C@H](O)[C@H](C)O2)Oc2ccc(cc2Cl)[C@H]1O | Metallo-beta-lactamase type 2 (Aeromonas hydrophila, UniProt P26918) | enzyme activity, inhibitor, fluorescence | – | – | 2.1
CC(=O)N[C@H]1CCCCn2cc3ccccc3c2SC[C@@H](C(N)=O)NC(=O)[C@H](Cc2ccc(O)cc2)NC(=O)[C@H](CCCNC(=N)N)NC(=O)[C@H](Cc2c[nH]c3ccccc23)NC(=O)[C@H](Cc2c[nH]cn2)NC(=O)[C@H](CC(C)C)NC(=O)[C@H](Cc2ccccc2)NC(=O)[C@H]([C@@H](C)O)NC1=O | Tyrosine-protein phosphatase non-receptor type 1 (PTPN1, Homo sapiens, UniProt P18031) | enzyme activity, inhibitor, absorbance | – | – | 10.4
CC1CCc2c(sc3ncnc(Sc4nnc(CN5CCCC5)o4)c23)C1 (stereo not shown) | Genome polyprotein, 3C protease (rhinovirus B14, UniProt P03303) | 3C protease activity, SAMDI-MS | human rhinovirus | – | > 100
Nc1ncc(Br)cc1C(=O)N1CCCCC1 | 4-diphosphocytidyl-2-C-methyl-D-erythritol kinase (ispE, Klebsiella pneumoniae subsp. pneumoniae, UniProt A6TAP2) | enzyme activity, PK/LDH coupled spectrophotometric | – | – | > 500
O=C1c2ccccc2[Se](=O)N1c1ccccc1 (stereo not shown) | Histone deacetylase 7 (HDAC7, Homo sapiens, UniProt Q8WUI4) | enzyme activity, inhibitor, fluorescence | – | – | 1.88
O=C(CCCCCCC(=O)Nc1ccccc1N=Nc1ccccc1)NO | Histone deacetylase 2 (HDAC2, Homo sapiens, UniProt Q92769) | enzyme activity, inhibitor | – | cis isomer, irradiated | 0.185 ± 0.042
C[C@@H](NC(=O)[C@@H](N)Cc1ccc(O)cc1)C(=O)NCC(=O)N[C@@H](Cc1ccc(F)cc1)C(=O)N1CCN(C(=O)[C@H](Cc2ccc(F)cc2)NC(=O)CNC(=O)[C@@H](C)NC(=O)[C@@H](N)Cc2ccc(O)cc2)CC1 | delta opioid receptor, mouse | vas deferens contraction, agonist | mouse vas deferens | – | 0.0027 ± 0.0017
C1CCc2c(c(N3CCOCC3)nc3sc4c(N5CCNCC5)nnnc4c23)C1 | uidA | enzyme activity, inhibitor | – | – | 0.108
Cc1ccc(C(C)C)cc1.[Cl][Ru]([Cl])[P](CP(c1ccccc1)c1ccccc1)(c1ccccc1)c1ccccc1 | Cathepsin B (CTSB, Homo sapiens, UniProt P07858) | inhibitor | – | 10 min preincubation, pH 6, room temperature, together with: Z-FR-AMC | 143

For quick reference, copied from above:
Structure (SMILES) | target | test | test system | setting | IC50 [µM]
O=C(CCCCCCC(=O)Nc1ccccc1N=Nc1ccccc1)NO | Histone deacetylase 2 (HDAC2, Homo sapiens, UniProt Q92769) | enzyme activity, inhibitor | – | cis isomer, irradiated | 0.185 ± 0.042
C[C@@H](NC(=O)[C@@H](N)Cc1ccc(O)cc1)C(=O)NCC(=O)N[C@@H](Cc1ccc(F)cc1)C(=O)N1CCN(C(=O)[C@H](Cc2ccc(F)cc2)NC(=O)CNC(=O)[C@@H](C)NC(=O)[C@@H](N)Cc2ccc(O)cc2)CC1 | delta opioid receptor, mouse | vas deferens contraction, agonist | mouse vas deferens | – | 0.0027 ± 0.0017
